Results collected from several papers.
Each line is one published result; not all experiments were run side by side.
EDNRA: Endothelin-1 receptor (EDNRA, Homo sapiens, UniProt P25101)
Sequence of UniProt P25101 (whole entry, looked up): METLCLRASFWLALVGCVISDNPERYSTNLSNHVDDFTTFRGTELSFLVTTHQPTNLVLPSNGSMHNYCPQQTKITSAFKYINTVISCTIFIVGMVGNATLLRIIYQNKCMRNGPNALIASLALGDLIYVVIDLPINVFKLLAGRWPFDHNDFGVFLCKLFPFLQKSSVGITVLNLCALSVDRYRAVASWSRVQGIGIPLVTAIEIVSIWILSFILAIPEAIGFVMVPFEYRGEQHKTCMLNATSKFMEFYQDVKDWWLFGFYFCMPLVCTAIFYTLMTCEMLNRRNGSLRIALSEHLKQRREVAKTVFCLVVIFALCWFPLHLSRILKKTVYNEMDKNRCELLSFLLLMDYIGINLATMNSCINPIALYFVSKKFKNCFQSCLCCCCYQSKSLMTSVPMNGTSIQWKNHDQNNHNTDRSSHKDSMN
BCHE: Cholinesterase (BCHE, Equus caballus, UniProt P81908)
Sequence of UniProt P81908 (whole entry, looked up): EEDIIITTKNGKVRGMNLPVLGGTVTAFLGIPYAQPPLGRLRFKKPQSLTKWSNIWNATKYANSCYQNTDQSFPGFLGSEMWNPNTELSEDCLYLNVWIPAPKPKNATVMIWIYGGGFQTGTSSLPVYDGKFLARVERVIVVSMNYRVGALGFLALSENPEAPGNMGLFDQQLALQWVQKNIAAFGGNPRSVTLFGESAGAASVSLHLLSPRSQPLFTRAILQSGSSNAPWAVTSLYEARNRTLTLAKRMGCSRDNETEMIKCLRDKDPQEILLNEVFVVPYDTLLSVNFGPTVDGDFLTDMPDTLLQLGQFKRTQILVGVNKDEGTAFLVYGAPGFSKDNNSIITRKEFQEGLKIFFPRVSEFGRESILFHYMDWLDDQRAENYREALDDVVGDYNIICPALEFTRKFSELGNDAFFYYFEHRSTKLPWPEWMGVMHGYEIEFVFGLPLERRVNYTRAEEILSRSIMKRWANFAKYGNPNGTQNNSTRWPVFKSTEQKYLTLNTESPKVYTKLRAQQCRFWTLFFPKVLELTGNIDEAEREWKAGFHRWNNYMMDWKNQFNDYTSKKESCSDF
Sequence of UniProt Q8IU85 (whole entry, looked up): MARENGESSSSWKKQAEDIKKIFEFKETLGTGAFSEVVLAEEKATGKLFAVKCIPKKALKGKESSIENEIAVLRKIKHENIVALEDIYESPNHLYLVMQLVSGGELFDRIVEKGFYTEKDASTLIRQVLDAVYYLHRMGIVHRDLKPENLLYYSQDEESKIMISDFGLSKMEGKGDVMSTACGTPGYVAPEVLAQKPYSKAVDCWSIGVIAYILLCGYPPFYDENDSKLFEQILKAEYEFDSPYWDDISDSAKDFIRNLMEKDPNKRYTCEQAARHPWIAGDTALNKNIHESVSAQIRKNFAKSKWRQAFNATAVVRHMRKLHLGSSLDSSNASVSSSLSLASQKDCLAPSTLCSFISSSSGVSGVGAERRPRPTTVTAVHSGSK
Sequence of UniProt P09619 (whole entry, looked up): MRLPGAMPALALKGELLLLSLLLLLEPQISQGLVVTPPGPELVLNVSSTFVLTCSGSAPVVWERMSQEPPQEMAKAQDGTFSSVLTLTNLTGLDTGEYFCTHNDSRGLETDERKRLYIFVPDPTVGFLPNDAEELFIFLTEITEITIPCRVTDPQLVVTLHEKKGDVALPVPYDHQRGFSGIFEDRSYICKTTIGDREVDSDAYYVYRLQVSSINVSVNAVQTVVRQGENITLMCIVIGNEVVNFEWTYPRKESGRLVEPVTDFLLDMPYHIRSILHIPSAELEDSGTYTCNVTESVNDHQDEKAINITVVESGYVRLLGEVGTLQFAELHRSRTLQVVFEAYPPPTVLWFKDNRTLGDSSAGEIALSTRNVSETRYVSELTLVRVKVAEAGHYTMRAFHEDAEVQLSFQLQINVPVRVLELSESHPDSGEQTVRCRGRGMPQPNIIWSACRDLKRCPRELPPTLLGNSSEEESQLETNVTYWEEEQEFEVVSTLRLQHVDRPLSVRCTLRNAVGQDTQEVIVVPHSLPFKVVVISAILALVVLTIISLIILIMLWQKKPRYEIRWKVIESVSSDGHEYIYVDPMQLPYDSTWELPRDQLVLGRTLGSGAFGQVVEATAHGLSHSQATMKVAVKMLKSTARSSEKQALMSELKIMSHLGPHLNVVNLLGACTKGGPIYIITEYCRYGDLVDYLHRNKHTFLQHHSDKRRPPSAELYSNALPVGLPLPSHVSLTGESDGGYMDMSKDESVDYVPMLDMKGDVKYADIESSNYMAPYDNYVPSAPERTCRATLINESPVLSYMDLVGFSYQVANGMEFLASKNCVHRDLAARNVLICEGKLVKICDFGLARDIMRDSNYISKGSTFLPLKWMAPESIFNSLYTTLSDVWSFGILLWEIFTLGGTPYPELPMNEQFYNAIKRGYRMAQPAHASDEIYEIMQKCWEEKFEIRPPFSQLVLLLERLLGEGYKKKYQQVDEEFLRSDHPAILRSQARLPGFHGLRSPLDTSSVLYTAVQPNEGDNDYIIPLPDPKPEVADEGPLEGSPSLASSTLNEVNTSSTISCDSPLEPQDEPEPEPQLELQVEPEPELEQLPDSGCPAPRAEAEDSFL
Sequence of UniProt Q8VDG7 (whole entry, looked up): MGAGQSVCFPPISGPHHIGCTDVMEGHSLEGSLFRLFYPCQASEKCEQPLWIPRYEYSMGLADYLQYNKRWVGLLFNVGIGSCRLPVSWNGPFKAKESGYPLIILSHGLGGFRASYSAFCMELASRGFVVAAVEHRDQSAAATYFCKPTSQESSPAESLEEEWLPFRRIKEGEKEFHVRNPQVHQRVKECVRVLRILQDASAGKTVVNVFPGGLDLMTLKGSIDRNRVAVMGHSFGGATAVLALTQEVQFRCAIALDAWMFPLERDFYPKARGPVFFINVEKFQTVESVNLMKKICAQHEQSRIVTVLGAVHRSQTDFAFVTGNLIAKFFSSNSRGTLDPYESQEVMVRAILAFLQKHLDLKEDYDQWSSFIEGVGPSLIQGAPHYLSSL
Sequence of UniProt O60331 (whole entry, looked up): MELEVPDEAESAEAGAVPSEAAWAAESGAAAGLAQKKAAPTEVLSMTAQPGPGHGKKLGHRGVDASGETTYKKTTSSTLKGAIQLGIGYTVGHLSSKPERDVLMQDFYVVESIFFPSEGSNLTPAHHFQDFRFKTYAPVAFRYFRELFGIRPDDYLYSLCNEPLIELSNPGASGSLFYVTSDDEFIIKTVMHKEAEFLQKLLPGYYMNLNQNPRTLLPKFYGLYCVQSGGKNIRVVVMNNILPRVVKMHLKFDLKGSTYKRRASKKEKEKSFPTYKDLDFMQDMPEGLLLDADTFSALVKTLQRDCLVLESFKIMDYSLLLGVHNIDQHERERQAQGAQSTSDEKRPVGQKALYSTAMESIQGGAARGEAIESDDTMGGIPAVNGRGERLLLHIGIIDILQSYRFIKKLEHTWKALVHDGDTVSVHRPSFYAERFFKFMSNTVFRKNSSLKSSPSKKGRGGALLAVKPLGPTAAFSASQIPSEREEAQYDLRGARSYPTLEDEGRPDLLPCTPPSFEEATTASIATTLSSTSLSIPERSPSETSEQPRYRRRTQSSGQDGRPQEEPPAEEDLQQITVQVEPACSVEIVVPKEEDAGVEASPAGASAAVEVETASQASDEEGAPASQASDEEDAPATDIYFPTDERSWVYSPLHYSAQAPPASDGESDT
Sequence of UniProt Q9H2K2 (whole entry, looked up): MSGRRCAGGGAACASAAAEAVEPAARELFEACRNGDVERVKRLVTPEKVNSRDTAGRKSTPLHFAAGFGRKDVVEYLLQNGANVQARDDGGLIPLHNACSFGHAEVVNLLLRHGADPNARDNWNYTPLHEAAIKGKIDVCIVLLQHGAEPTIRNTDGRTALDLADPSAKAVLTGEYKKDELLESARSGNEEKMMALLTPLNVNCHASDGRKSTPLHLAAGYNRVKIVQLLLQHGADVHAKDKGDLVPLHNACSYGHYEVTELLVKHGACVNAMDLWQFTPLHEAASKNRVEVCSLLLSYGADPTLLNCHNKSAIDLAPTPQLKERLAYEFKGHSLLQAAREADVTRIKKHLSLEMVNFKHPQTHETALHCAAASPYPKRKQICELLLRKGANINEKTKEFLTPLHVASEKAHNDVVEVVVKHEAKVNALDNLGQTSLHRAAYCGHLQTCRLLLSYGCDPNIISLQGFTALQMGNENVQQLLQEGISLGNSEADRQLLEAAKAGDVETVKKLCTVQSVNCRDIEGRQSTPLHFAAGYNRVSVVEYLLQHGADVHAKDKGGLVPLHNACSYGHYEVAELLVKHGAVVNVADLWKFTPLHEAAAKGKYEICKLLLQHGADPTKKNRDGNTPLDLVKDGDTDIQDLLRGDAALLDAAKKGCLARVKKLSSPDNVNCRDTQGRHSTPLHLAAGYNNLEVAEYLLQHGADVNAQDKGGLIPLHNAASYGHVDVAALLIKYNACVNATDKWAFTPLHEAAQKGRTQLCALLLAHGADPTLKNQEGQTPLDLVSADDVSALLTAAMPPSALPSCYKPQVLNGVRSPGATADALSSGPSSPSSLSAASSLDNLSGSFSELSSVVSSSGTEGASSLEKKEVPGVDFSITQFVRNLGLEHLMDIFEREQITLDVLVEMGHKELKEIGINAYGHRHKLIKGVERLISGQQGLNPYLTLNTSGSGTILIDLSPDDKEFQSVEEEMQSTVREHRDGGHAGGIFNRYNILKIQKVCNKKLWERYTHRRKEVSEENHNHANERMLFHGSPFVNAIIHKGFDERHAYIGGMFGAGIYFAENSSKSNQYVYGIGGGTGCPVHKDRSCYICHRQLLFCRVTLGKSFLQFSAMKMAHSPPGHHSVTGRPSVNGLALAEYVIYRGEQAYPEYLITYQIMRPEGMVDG
Sequence of UniProt P06493 (whole entry, looked up): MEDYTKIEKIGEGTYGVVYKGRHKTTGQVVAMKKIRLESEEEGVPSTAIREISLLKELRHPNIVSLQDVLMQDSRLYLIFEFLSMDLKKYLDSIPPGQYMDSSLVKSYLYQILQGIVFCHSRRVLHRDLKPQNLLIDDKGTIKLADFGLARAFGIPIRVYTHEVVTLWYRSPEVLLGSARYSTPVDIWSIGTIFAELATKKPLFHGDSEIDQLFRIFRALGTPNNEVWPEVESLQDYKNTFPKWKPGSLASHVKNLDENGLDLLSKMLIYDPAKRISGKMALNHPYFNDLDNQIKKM

| SMILES | target | test | system | conditions | inhibition [%] |
| --- | --- | --- | --- | --- | --- |
| CCc1nnc(-c2c(OC)cc(-c3cnc4cc(-c5cnn(C)c5)ccn34)cc2OC)o1 | EDNRA | agonist radioligand, radioligand binding |  | 10 µM, SafetyScreen44 ETA | 4 |
| C[C@H](NCc1ccc(-c2ccc(C(F)(F)F)cc2)cc1)C(N)=O | PDGFRB (Homo sapiens, UniProt P09619) | cell-free assay, competition with immobilised ligand |  | 1 µM | 0 |
| CC(C)[C@H]1NC(=O)C[C@H]2/C=C/CCSSC[C@@H](NC1=O)C(=O)N[C@H](Cc1cccc3ccccc13)C(=O)NCC(=O)O2 | ABL1 (Homo sapiens, UniProt P00519, T315I) | enzyme activity, inhibitor |  | 10 µM | 0.6 |
| CN(C)[C@H]1C[C@@]23CC[C@@]4(O2)C(=CC[C@]2(C)[C@@H](c5ccc6ccncc6c5)CC[C@H]24)C=C3[C@@H](O)[C@@H]1O | CAMK1D (Homo sapiens, UniProt Q8IU85) | ATP probe labelling, inhibitor, KiNativ profiling |  | 0.1 µM | -1 |
| CS(C)(=O)=Nc1ccc(-c2ccc(-c3nc4cc(O[C@@H]5CO[C@H]6[C@@H]5OC[C@H]6O)[nH]c4cc3F)cc2)cc1 | sigma receptor human non-selective | binding |  | 10 µM | 25 |
| Cc1ccc2c(n1)c(-c1cccc(S(C)(=O)=O)c1)c(C)n2C/C(F)=C/CN | PDE3 (human) |  |  | 10 µM | -7 |
| N[C@H](C(=O)N1CCCC1)C1CCN(c2nccc3c(-c4ncc(Cl)cc4Cl)cccc23)CC1 | PADI3 (Homo sapiens, UniProt Q9ULW8) | enzyme activity, inhibitor |  | 0.2458 µM | 69 |
| CC(=O)NC[C@@H]1[C@@H](O)C[C@H]2[C@H](O)C[C@@H](CO)N12 | Spodoptera litura β-N-acetylglucosaminidase |  | crude enzyme | 3.42 µM, run 2, together with: p-nitrophenyl GlcNAc | 89.3 |
| COc1ccc(F)cc1S(=O)(=O)Nc1cnc2c(c1)C(=O)NCCO2 | N-type calcium channel | radioligand binding |  | 10 µM | -2 |
| O=C(N1CCCCC1)n1ccnn1 | Platelet-activating factor acetylhydrolase 2, cytoplasmic (Mus musculus, UniProt Q8VDG7) | serine hydrolase activity, inhibitor, competitive gel-based ABPP | mouse T-cell proteome | 1 µM, 30 min, 37 °C | 50 to 95 |
| CN(/N=C/c1ccccc1C(=O)O)c1nc(-c2ccccc2Cl)cs1 | Cyclin-dependent kinase 6, with cyclin D1 (CDK6, Homo sapiens, UniProt Q00534) | enzyme activity, inhibitor |  | 1 µM | -5.92 |
| N#Cc1ccc(N2N=C3c4ccc(C(=O)O)cc4CCC3C2C2CCCC2)cc1Cl (centres unmarked) | SETD2 (Homo sapiens, UniProt Q9BYW2) | enzyme activity, inhibitor |  | 10 µM | 16 |
| CCOC(=O)[C@](CC)(CCCSCCOCCOCCNC(=O)c1ccc(-c2c3ccc(=N)c(S(=O)(=O)O)c-3oc3c(S(=O)(=O)O)c(N)ccc23)c(C(=O)O)c1)NC(=O)c1ccc(C2CC2)c(Cc2ccc(F)cc2)n1 | GSK3A (Homo sapiens, UniProt P49840) | enzyme activity, inhibitor |  | 10 µM | -13 |
| O=C(O)c1ccccc1/C=N/Nc1nc(-c2ccccc2Cl)cs1 | Cyclin-dependent kinase 1, with cyclin E1 (CDK1, Homo sapiens, UniProt P06493) | enzyme activity, inhibitor |  | 1 µM | -4.38 |
| O=C(c1cc(Cc2n[nH]c(=O)c3ccccc23)ccc1F)N1CC(CNC2CC2)C1 | TNKS2 (Homo sapiens, UniProt Q9H2K2) | enzyme activity, inhibitor |  | 10 µM | 62 |
| O=C(CN1CN(c2ccccc2)C2(CCN(C(=O)c3cnc4[nH]ncc4c3)CC2)C1=O)NCC(F)(F)F | PIP5K1C (Homo sapiens, UniProt O60331) | inhibitor |  | concentration not given | < 50 |
| NC1CC1 | BCHE | enzyme activity, inhibitor, Ellman |  | 20 µM | 32 |
| CN[C@@H]1[C@H](O)[C@H](NC)[C@H]2O[C@]3(O)[C@H](O[C@@H]2[C@H]1O)O[C@H](C)C[C@H]3NC(=O)Cc1cc(Cl)ccn1 | EDNRA | ligand displacement, radioligand |  | 10 µM | -3 |
| NCC1CC1 | BCHE | enzyme activity, inhibitor, Ellman |  | 20 µM | 30 |
| O=C1c2ccccc2CCCN1CCCCN1CCN(c2cccc(Cl)c2Cl)CC1 | DRD4 (Homo sapiens, UniProt P21917) | radioligand binding |  | concentration not given, together with: [3H]N-methylspiperone | 101 |

Repeated from above:
| SMILES | target | test | system | conditions | inhibition [%] |
| --- | --- | --- | --- | --- | --- |
| CC(C)[C@H]1NC(=O)C[C@H]2/C=C/CCSSC[C@@H](NC1=O)C(=O)N[C@H](Cc1cccc3ccccc13)C(=O)NCC(=O)O2 | ABL1 (Homo sapiens, UniProt P00519, T315I) | enzyme activity, inhibitor |  | 10 µM | 0.6 |
